Published values gathered from unrelated publications.
Every numbered part comes from another study and shows a few of its results, in no order. Several values in a cell are separate wells, animals, samples, runs or records.

Block 1 — medium: plasma; measurement: geometric mean concentration
SMILES: COc1ccc(-c2c(Nc3ccccn3)[nH]c3c(C4=CCCCC4)c(-c4ccccc4)nn3c2=O)cc1
LC-MS/MS, measured: S-adenosylmethionine; oral, 200 mg twice daily, 4 h, cycle 1 day 1: 11.1 ng/mL
LC-MS/MS, measured: S-adenosylmethionine; oral, 50 mg once daily, 8 h, cycle 1 day 1: 23.2 ng/mL
LC-MS/MS, measured: S-adenosylmethionine; oral, 50 mg once daily, 2 h, cycle 1 day 1: 22 ng/mL
measured: methionine; human patients; 150 mg once daily, 4 h: 119000 ng/mL
measured: S-adenosylmethionine; human patients; 100 mg once daily, 6 h: 16.5 ng/mL
measured: methionine; human patients; 150 mg once daily, 6 h: 115000 ng/mL
measured: S-adenosylmethionine; human patients; 200 mg once daily, 8 h: 15.2 ng/mL
measured: methionine; human patients; 100 mg once daily, 4 h: 85000 ng/mL
measured: methionine; human patients; 400 mg once daily, 2 h: 75400 ng/mL
measured: S-adenosylmethionine; human patients; 100 mg once daily, 4 h: 18.3 ng/mL
measured: S-adenosylmethionine; human patients; 400 mg once daily, 0 h: 18.5 ng/mL

Block 2 — organism: Sarcocystis neurona; observed: parasite growth; concentration: 10 µM; time: 96 h; notes: second screen; baseline: untreated; measurement: log2 fold change
C[n+]1ccccc1/C=N/O: 0.38
Cc1cccc(C)c1NC(=O)C(C)N (stereo not drawn): 0.08
COc1cc2nc(N3CCN(C(=O)C4COc5ccccc5O4)CC3)nc(N)c2cc1OC (stereo not drawn): -1.92
CSc1ccc2c(c1)N(CCC1CCCCN1C)c1ccccc1S2 (stereo not drawn): -0.8
O=c1[nH]c(=O)n(C2CCCO2)cc1F (stereo not drawn): 0.08
CC(C)(C(=O)O)c1ccc(C(O)CCCN2CCC(C(O)(c3ccccc3)c3ccccc3)CC2)cc1 (stereo not drawn): 0.42
CCCCc1nc(Cl)c(CO)n1Cc1ccc(-c2ccccc2-c2nn[nH]n2)cc1: 0.23
CC(C)NCC(O)COc1cccc2[nH]ccc12 (stereo not drawn): 0.4
CCc1ccc(CCOc2ccc(CC3SC(=O)NC3=O)cc2)nc1 (stereo not drawn): -0.15
CN(C)[C@@H]1C(O)=C(C(N)=O)C(=O)[C@@]2(O)C(O)=C3C(=O)c4c(O)cccc4[C@@](C)(O)[C@H]3[C@H](O)[C@@H]12: -0.08
C#C[C@]1(O)CC[C@H]2[C@@H]3[C@H](C)CC4=C(CCC(=O)C4)[C@H]3CC[C@@]21C: 0.28
COc1cccc2c1C(=O)c1c(O)c3c(c(O)c1C2=O)C[C@@](O)(C(C)=O)C[C@@H]3O[C@H]1C[C@H](N)[C@H](O)[C@H](C)O1: -4.52

Block 3 — cell line: normal-adjacent epithelial organoid; observed: cell viability; technique: CellTiter-Glo; species: human; medium: patient-derived organoid; concentration: 1 µM; baseline: DMSO; measurement: viability
O=c1nc(-c2ccccn2)sc2ccccc12: 108% and 96.2%
CCOCCn1cc(C(=O)Nc2ccc(-n3nc(-c4cccnc4)cc3C(F)(F)F)cn2)ccc1=O: 114%
c1ccc2oc(-c3csc(C4CCN(Cc5nc6ncccc6[nH]5)CC4)n3)cc2c1: 63.9%
CC(=O)Nc1c(F)cc(C(=O)N[C@H]2CC[C@H](O)CC2)cc1O[C@@H](C)c1ccccc1: 100%
C[C@@H]1CN(c2cc(-c3nn(C)c4ccc(OC5(C)CC5)cc34)ncn2)C[C@H](C)O1: 73.9%
Cn1nc(C(=O)NCc2ccc(C(=O)O)cc2)cc1-c1ccc2[nH]ccc2c1: 81%
Cn1c(-c2csc(C3CCN(Cc4nc5ncccc5[nH]4)CC3)n2)nc2ccccc21: 98.5%
O=C1NC(c2ccccn2)Sc2ccccc21 (stereo not drawn): 92.8% and 107%
C[C@H](NC(=O)Nc1cc2[nH]ncc2c(CO)n1)c1ccccn1: 122% and 94.7%
CN1CCN(C(=O)C(C)(C)c2ccc(C(=O)Nc3cn4cc(-c5ccncc5)ccc4n3)cc2)CC1: 51.7%
CC(=O)Nc1c(C(C)=O)c(=O)n(C)c2nc(-c3ccc(Cl)cc3Cl)c(-c3ccc(Cl)cc3)cc12: 79.7% and 86.4%
CC(=O)C1=C(C)N(c2cccc(C(F)(F)F)c2)C(=O)N[C@@H]1c1ccc(C#N)nc1: 103% and 82.9%
CNCc1ccccc1-c1csc([C@@H](C)Nc2nc(C)nc3cc(OC)c(OC)cc23)c1: 92.4%
CCS(=O)(=O)c1cc2cc(C[C@](O)(CC(C)(C)c3ccc(F)cc3C(N)=O)C(F)(F)F)[nH]c2cn1: 113%

Block 4 — cell line: A-375; concentration: 100 µM; time: 36 h; measurement: viability
Cc1cn[nH]c1: 119%
O=C(O)c1cc(-c2ccccc2)nc2ccccc12: 109%
Cc1onc(-c2ccccc2)c1C(=O)N[C@@H]1C(=O)N2[C@@H]1SC(C)(C)[C@@H]2C(=O)O: 104%
CC(C)(C)C(=O)OCOP(=O)(COCCn1cnc2c(N)ncnc21)OCOC(=O)C(C)(C)C: 17.3%
O=[N+]([O-])c1cncn1CCN1CCOCC1: 104%
Cn1c(=O)c2c(ncn2CC2OCCO2)n(C)c1=O: 113%
COc1ccc2[nH]cc(CCNC(C)=O)c2c1: 99.7%
O=C(O)c1ccccc1O: 111%

Repeated from above (block 3):
C[C@H](NC(=O)Nc1cc2[nH]ncc2c(CO)n1)c1ccccn1: 122% and 94.7%
CN1CCN(C(=O)C(C)(C)c2ccc(C(=O)Nc3cn4cc(-c5ccncc5)ccc4n3)cc2)CC1: 51.7%
CC(=O)Nc1c(C(C)=O)c(=O)n(C)c2nc(-c3ccc(Cl)cc3Cl)c(-c3ccc(Cl)cc3)cc12: 79.7% and 86.4%
CC(=O)C1=C(C)N(c2cccc(C(F)(F)F)c2)C(=O)N[C@@H]1c1ccc(C#N)nc1: 103% and 82.9%
CNCc1ccccc1-c1csc([C@@H](C)Nc2nc(C)nc3cc(OC)c(OC)cc23)c1: 92.4%
